Experimental data from different studies.
Numbers after ± are the reported error.
Cell line: Vero E6

| Compound | observed | technique | time | CC50 [µM] |
| --- | --- | --- | --- | --- |
| CC[C@@H]1C[C@]1(NC(=O)[C@@H]1C[C@@H]2CN1C(=O)[C@H](C(C)(C)C)NC(=O)OCC(C)(C)CCCCc1cccc3c1CN(C3)C(=O)O2)C(=O)NS(=O)(=O)C1CC1 | cell viability | MTT | 48 (unit not given) | 4.3 |
| Nc1nc2nc[nH]c2c(=S)[nH]1 |  | XTT | 48 h | 331 ± 21.3 |
| CNC(=O)c1ccc(-c2cnc3ncc(Cc4ccc5ncccc5c4)n3n2)cc1F |  |  | 3 (unit not given) | 38.1 |
| CN(C)CCn1c(C(=O)N2CCN(c3ccccc3Cl)CC2)c(C(c2ccc(O)cc2)c2ccc(O)cc2)c2ccccc21 |  | cell number | 40 (unit not given) | > 2.5 |
| C/C=C(/C)C(=O)OC(C)(C)[C@@H]1Cc2c(ccc3ccc(=O)oc23)O1 |  |  | 3 (unit not given) | 88.7 |
| CCCC[C@H](NC(=O)[C@@H]1[C@@H]2[C@H](CN1C(=O)[C@@H](NC(=O)NC1(CS(=O)(=O)C(C)(C)C)CCCCC1)C(C)(C)C)C2(C)C)C(=O)C(=O)NC1CC1 | cell viability | MTT | 48 (unit not given) | > 20 |
| COc1cc2c(cc1N1C[C@@H](C)N[C@@H](C)C1)N(C(=O)c1ccc(-c3ccc(-c4noc(C)n4)cc3C)cc1)CC2 |  | cell number | 40 (unit not given) | > 2.5 |
| Nc1ccc(O)c(=O)cc1 |  | XTT | 48 h | 186 ± 16.6 |
| CCC[C@H](NC(=O)[C@@H]1[C@H]2CCC[C@H]2CN1C(=O)[C@@H](NC(=O)[C@@H](NC(=O)c1cnccn1)C1CCCCC1)C(C)(C)C)C(=O)C(=O)NC1CC1 | cell viability | MTT | 48 (unit not given) | > 50 |
| C[C@@H]1CS/C(=N\NC(=O)C(=O)[C@H](NC(=O)C2CCCCCC2)C2CCOCC2)N1C |  | cell number | 40 (unit not given) | > 2.5 |

Repeated from above:
| Compound | observed | technique | time | CC50 [µM] |
| --- | --- | --- | --- | --- |
| Nc1ccc(O)c(=O)cc1 |  | XTT | 48 h | 186 ± 16.6 |
